Results of several laboratories.
Numbered parts are unrelated; each lists some results of a single study. Substitutions count along the parent as printed.

Sample 1 — method: RNA Bind-n-Seq; molecule type: RNA; medium: in vitro; concentration: 1 µM; setting: whole 134-nt RNA, ends assumed; added: 150 mM KCl; relative to: input library; reading: higher = stronger binding; endpoint: log2 enrichment
Target: Ras GTPase-activating protein-binding protein 1, RRM domain (G3BP1, Homo sapiens, UniProt Q13283)
UniProt Q13283, sequence (whole entry, looked up): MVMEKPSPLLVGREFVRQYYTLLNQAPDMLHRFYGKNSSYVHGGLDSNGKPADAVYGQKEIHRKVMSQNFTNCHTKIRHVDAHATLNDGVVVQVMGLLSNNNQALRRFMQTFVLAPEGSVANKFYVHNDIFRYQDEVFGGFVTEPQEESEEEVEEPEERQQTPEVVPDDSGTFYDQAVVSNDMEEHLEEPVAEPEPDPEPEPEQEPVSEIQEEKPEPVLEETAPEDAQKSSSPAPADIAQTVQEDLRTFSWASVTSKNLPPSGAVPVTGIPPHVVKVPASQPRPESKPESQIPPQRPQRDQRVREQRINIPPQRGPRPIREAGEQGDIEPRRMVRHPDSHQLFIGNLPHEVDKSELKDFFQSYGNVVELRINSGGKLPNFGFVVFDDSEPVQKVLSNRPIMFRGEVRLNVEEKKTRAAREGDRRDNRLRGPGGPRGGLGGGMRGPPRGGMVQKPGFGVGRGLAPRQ
All sequences stand within: GGGAGUUCUACAGUCCGACGAUC … UGGAAUUCUCGGGUGUCAAGG
CCUCAAGUCCUGUGCUACACAUCGUAUGUACCGAAUCGGGGCGGCGGCGGGGAAAGUAUUAUGUUACGCCGUUCGGAUCUGCACUUCCAG: -0.314
UGUCCCUGGUGGCAUGCGGGGAGGAAGAGGUGGCCUCAUGGAUCGUGGUGGUCCCGGUGGAAUGUUCAGAGGUGGCCGUGGUGGAGACAG: 0.526
CAAGUCCUGUGCUACACAUCGUAUGUACCGAAUCGGGUUUGGGGUUUGGGGUUUGGAAAGUAUUAUGUUACGCCGUUCGGAUCUGCACUU: -0.462
GCUCGCCCGAGCUCAGAGGUGAUCAAAGACGCCAACUUGUACAUCAGCGGGCUCCCGCGGACCAUGACCCAGAAGGACGUAGAAGACAUG: -0.311
UAACUUUAGAGGAGGAUCUGAUGGAUAUGGCAGUGGACGUGGAUUUGGGGAUGGCUAUAAUGGGUAUGGAGGAGGACCUGGAGGUGGAAA: -0.173
UGCUGGUGAGCUGCUGCCUGGCAGGCCACGUCUGCGUGUGGGACGCGCAGACCGGGGAUUGCCUAACGCGCAUUCCGCGCCCAGGGUAGG: -0.673
CAAGUCCUGUGCUACACAUCGUAUGUACCGAAUCGGGGAGGGGUUUGGGGAGGGGAAAGUAUUAUGUUACGCCGUUCGGAUCUGCACUUC: 1.14
UCCUGUGCUACACAUCGUAUGUACCGAAUCGGGUUUUUUGGUUUUUUGGUUUUUUGGGGAAAGUAUUAUGUUACGCCGUUCGGAUCUGCA: -0.196
GCAGGAAGUAAAAACAAAUGGAAAUGCUUCGGAUAGUGGCAGGGGUGGGGGUUGCUAAGGAAAGGGUGGGAUGGGAGUGGGUCAAGAGUU: 0.722
ACCAUGCAGGUGGGCAUCUUUGGGAAGUUGGGCAAGGGGGGGAUAGGGAGGGGGGUAACACUUUGGGAACAGGUGGUCCCAGGUCGUUUC: -0.473

Sample 2 — method: RNA Bind-n-Seq; molecule type: RNA; medium: in vitro; concentration: 365 nM; relative to: no-protein control; reading: higher = stronger binding; endpoint: RBNS enrichment (R)
Target: RNA binding protein fox-1 homolog 2, RRM domain, GST-SBP tag (RBFOX2, Homo sapiens, UniProt O43251-10, residues 100-194)
Setting: natural RNA segment, single round, ends assumed
All sequences stand within: GGGAGUUCUACAGUCCGACGAUC … UGGAAUUCUCGGGUGCCAA
Construct (chain): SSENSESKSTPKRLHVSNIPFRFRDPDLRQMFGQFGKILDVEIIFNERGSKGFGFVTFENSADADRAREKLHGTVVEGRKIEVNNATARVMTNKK
UGGUCUUGAGGGAAUGUUAGCAAGGAACACAUAGAAGAUUUGGUGUUUCAUAAGCCUGUCUAGGUGUGGCAGGUUUUGUGUGGUACACUGAUGUUUACCAUAAGCAGGUA: 2.24
CCAGCUGGGCUGUUAGCCGGGCCACCCCCUCUGAAGGUGAAACUGAGCAGAUGAGGCCACAGAAGCACAAGGGGAAGGUGCCGUGUCAAGCCCAGGCAGACGAGACCUCU: 0.386
UCUCUCAGCAUCACAGAUGAAACUUAGCUUGAAUGGGUCAAUUCCACCUGUUUUUCUGUGCUCCAGCUGGGCAGUGGGCUCCCCAUGUAGAGCUGAGCCUCUCCACUUCA: 0.452
UAAGCUUUGGUUCUUUAGGGUGACUGUGGUAAGAAGGAUAUUUAAUCAUGACAUGCACGGACACGUACAUAUUUAACUGAAACAAGUUUUACCAAACAGUAUUUACUCGU: 0.753
GCAGCCUUCCAGAGACUGAUCCUGGAGAUUGAGUUGAUUGUCUUGGCUAGACCUGUCAUUUUAAGCUCUAGUCAUAGCACUUUUUCAGAGCAUCUUAGGCACCAUUGCAA: 2.67
ACAAAUUUCGCCAUACUCAGUGGGACUCUCAAGUAGACUUUCAUAGUUGCAGUCACUUCAGGUCUCUCCCUCGGGUUCCCUUAGGAUGCAAGCACAAGAACAGACACCUG: 0.308
CAAAGGGAGUGUUGAAACUCAAGUCCCGCCCUGGCUCUUUAGAAUGGACCACUGAGAGCCACAGGACCGUUUUGGGGCUGACCUGUCUUAUUACGUAUGUACUUCUAGGU: 0.406
CUGUAAUGUUUGAUGUCUCAAAUGCACCGUAUUACGGUAAUAACAUGGUUUCGAAAACUUUCUGUUUUUAUUUUGUCACAGAGCUGUUGUCAUAGUUGAAAUGAUGUUUA: 0.434
UUGGAAACCAGGCCUGGGCCUCAAAAUGGAGAUGGAUCCCAGGUCUUGUGGGACCCUGGGAUGUUUGGGGACUUUACUAUCUAGCACCCCAGUAGGCCUGUCCUGGCCAG: 0.901
GUUUAGUCAUCUAAGGCUUCAUUGUACUUCGGGGAGAGCUAUAAGUAACUCACCUUUAAAACAACAGGCUCUGAUUUGCUGAAGAGGUUUGGUAUUUUUUAAGGUAUGUC: 0.409
ACUGGGAUAUAUUUUUCUAAUUUCUAGUGAUCUUAGUAUGCAUAUUUUUUUCUAACCUUUCAAAAGUUUGAUUCAACCGUCUUACCUUGUAGUGUUAAGAUUCCAUACAG: 0.316
CUUCAACAUUUCUUCACUUUUGCAAGGUUCCACAGACUAAGACAUUGGGUCUAUUCCAGCUCAUUCAUUUUAUAUUGAAAACUAAUUUAAAAAAAAAUGGUGGCUUCAGC: 0.472

Sample 3 — method: DHFR PCA, deep sequencing; medium: yeast; added: (+)-ABA 1.4 µM; relative to: wild-type fitted maximum; reading: higher = stronger binding; endpoint: relative binding score
Target: ABI1, truncated, D143A, DHFR fusion (Arabidopsis thaliana)
Setting: methotrexate growth selection, single substitutions
Starting sequence: PYL1, truncated, DHFR fusion (Arabidopsis thaliana); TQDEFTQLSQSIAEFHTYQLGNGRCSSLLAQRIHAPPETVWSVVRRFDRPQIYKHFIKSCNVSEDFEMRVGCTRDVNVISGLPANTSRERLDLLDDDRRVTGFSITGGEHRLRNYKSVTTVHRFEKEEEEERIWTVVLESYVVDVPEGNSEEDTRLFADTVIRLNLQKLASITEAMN; partner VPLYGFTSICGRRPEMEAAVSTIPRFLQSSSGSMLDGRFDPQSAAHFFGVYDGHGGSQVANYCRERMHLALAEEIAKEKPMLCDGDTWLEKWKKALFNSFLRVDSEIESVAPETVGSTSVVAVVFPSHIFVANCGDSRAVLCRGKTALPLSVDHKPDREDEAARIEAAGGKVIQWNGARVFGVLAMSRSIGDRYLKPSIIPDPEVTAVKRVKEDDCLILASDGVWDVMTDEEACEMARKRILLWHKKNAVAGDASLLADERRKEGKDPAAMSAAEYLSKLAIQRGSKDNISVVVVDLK
I57M: 3.41%
H55C: 83.1%
F47Q: -0.584%
I79C: 50.9%
D96S: 1.58%
H16F: -8.33%
H110F: 3.79%
G71T: 3.34%
R49K: 70.8%
D48Q: -6.37%
H55P: 109%
T73Q: 45.8%
K54Q: 2.61%
S171I: 22.8%
P37T: 18.8%
F66Y: 31.7%
Q2R: 61.6%

Sample 4 — method: universal PBM; molecule type: double-stranded DNA, one strand shown; medium: in vitro; concentration: not given; reading: higher = stronger binding; endpoint: E-score
Target: Sal-like protein 4, full length isoform B (SALL4, Homo sapiens, UniProt Q9UJQ4-2, residues 1-616)
Setting: 8-mer, flanks averaged, mean of replicates
Construct (chain): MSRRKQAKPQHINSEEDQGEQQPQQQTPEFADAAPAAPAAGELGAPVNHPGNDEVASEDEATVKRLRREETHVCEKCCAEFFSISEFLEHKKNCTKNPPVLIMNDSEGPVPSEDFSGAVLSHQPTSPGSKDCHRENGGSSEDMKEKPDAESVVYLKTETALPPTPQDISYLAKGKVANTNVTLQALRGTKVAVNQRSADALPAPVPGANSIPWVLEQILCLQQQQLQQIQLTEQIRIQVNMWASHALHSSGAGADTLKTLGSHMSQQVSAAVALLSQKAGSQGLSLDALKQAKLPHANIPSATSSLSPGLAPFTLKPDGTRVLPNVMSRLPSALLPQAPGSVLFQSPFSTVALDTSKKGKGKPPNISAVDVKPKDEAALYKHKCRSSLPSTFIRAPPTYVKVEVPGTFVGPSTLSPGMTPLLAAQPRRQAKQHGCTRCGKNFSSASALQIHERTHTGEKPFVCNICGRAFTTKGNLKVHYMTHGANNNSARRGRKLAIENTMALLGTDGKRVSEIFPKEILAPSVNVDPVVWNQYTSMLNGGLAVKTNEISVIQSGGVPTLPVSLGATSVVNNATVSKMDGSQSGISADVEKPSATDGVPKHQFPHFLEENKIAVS
TGGCACAA: -0.0148
GTCGGGCA: -0.212
GAGTCACC: -0.257
GACCATCA: -0.0284
GTGGAGTA: 0.0784
CTTATACA: 0.236
TCACGTGA: 0.0345
AAGATAAT: 0.317
GCGCAACC: -0.309
ACTTGGCC: -0.186
CGTCAATC: -0.00245
AAGGAACA: -0.0775
AGGGTCTG: -0.284
GTGCTGTA: -0.0203
ACCATGAC: -0.129
CGGGACCA: -0.37
AACCGTTC: -0.0499
CCTCTGTA: 0.122
GCTGCGTA: -0.157
